{"data": "Results from different studies", "note": "Each line is one published result; not all experiments were run side by side. “And” joins repeats or separate records; there may be more than shown."}
{"SMILES": "COc1cc2c(Oc3ccc4[nH]c(C)cc4c3F)ccnc2cc1OCC1(N)CC1", "system": "paediatric recurrent refractory sarcoma", "conditions": "8 mg", "endpoint": "grade 3 Cholesterol elevation", "value": "0%"}
{"SMILES": "Cn1c(-c2ccc(C(N)=O)cc2F)nnc1C(C)(C)Oc1c(F)cc(Cl)cc1F", "system": "human", "conditions": "oral, dose not given, single ascending dose all doses", "endpoint": "subjects with drug-related TEAE", "value": "11.1%"}
{"SMILES": "CCN1[C@@H](C(=O)NC23CCC(C(=O)O)(CC2)CC3)[C@H](c2cccc(Cl)c2F)[C@]2(C(=O)Nc3cc(Cl)ccc32)C12CCCCC2", "system": "patients with advanced solid tumours", "conditions": "oral, 150 mg", "endpoint": "grade ≥3 Leukopenia incidence", "value": "37.5%"}
{"SMILES": "C=CCNc1c(O)cc2c(O)c1C[C@@H](C)C[C@H](OC)[C@H](O)[C@@H](C)/C=C(\\C)[C@H](OC(N)=O)[C@@H](OC)/C=C\\C=C(/C)C(=O)N2", "test": "measured: first-degree AV block", "system": "patients with unresectable or metastatic GIST, STS or other tumours", "conditions": "intravenous, 225 mg/m^2", "endpoint": "treatment-emergent adverse events", "value": "33%"}
{"SMILES": "CCc1ccc(CC/C=C/c2ccc3c(c2)C(=O)CC3)cc1", "system": "Sprague-Dawley rat, female, serum", "conditions": "oral, 120 mg/kg/day, 14 days", "endpoint": "total bilirubin", "value": "1.47 µM"}
{"SMILES": "COc1ccc(-c2c(-c3ccc(C#N)c(F)c3)nc(N3CCC(N)CC3)n(C)c2=O)cc1F", "test": "measured: Thrombocytopenia", "system": "relapsed/refractory marginal zone lymphoma patients", "conditions": "oral, 60 mg, any grade, dose expansion", "endpoint": "treatment-related adverse event incidence", "value": "67%"}
{"SMILES": "NC(=O)[C@H]1CCN(c2ncnc(N)c2F)C[C@@H]1N1CCC[C@@H](Nc2cc(Cl)cc(C(F)(F)F)c2)C1=O", "system": "B-cell malignancy patients", "conditions": "oral, 20.5 mg twice daily, dose", "endpoint": "grade ≥3 leukocytosis", "value": "0%"}
{"SMILES": "CC(C)CC(=O)OC[C@H]1O[C@@](C#N)(c2ccc3c(N)ncnn23)[C@H](O)[C@@H]1O", "test": "plasma protein binding", "system": "rat plasma", "conditions": "9 µM", "endpoint": "bound fraction", "value": 0.918}
{"SMILES": "C=CC(=O)Nc1cc(Nc2nccc(Nc3cc(Cl)c(F)cc3C(C)(C)O)n2)c(OC)cc1N1CC[C@@H](N(C)C)C1", "test": "treatment-emergent adverse events", "system": "human", "conditions": "oral, 400 mg, phase I clinical trial", "endpoint": "incidence of weight decreased", "value": "30%"}
{"SMILES": "CN1CCN(S(=O)(=O)c2cc([N+](=O)[O-])ccc2N(CCOS(C)(=O)=O)CCOS(C)(=O)=O)CC1", "system": "NOD/SCID mouse, naive, blood", "conditions": "intraperitoneal, 25 mg/kg, week 2", "endpoint": "hemoglobin", "value": "118 g/L and 106 g/L and 156 g/L"}
{"SMILES": "Cc1ccc(F)c2cc(C(=O)N[C@@H]3CCC[C@H](N4CC[C@H](N(C)S(C)(=O)=O)C4)C3)[nH]c12", "system": "CD1 mouse, plasma", "conditions": "intravenous, 1 mg/kg, 10 h", "endpoint": "plasma concentration", "value": "3.15 ng/mL"}
{"SMILES": "CC(=O)c1c(C)c2cnc(Nc3ccc(C4CCN(CCS(C)(=O)=O)CC4)cn3)nc2n(C2CCCC2)c1=O", "system": "human, plasma", "conditions": "oral, 75 mg twice daily, day 21, multiple doses, added: letrozole", "endpoint": "Cmax", "value": "191 ng/mL"}
{"SMILES": "COc1ccc2nc3cc(Cl)ccc3c(Nc3cc(CN4CCCC4)c(O)c(CN4CCCC4)c3)c2n1", "system": "mouse, blood", "conditions": "intraperitoneal, 14 mg/kg", "endpoint": "AST activity", "value": "50.7 U/L"}
{"SMILES": "CC[C@H](C)[C@H](NC(=O)[C@H](Cc1ccccc1)NC(=O)[C@H](CCC(=O)O)NC(=O)[C@H](CCCNC(=N)N)NC(=O)[C@H](C)NC(=O)[C@H](C)NC(=O)[C@H](CCC(N)=O)NC(=O)[C@H](CCC(=O)O)NC(=O)[C@H](CCC(=O)O)NC(=O)[C@H](CC(C)C)NC(=O)[C@H](Cc1ccc(O)cc1)NC(=O)[C@H](CO)NC(=O)[C@H](CO)NC(=O)[C@@H](NC(=O)[C@H](CC(=O)O)NC(=O)[C@H](CO)NC(=O)[C@@H](NC(=O)[C@H](Cc1ccccc1)NC(=O)[C@@H](NC(=O)CNC(=O)[C@H](CCC(=O)O)NC(=O)[C@H](C)NC(=O)CCc1cnc[nH]1)[C@@H](C)O)[C@@H](C)O)C(C)C)C(=O)N[C@@H](C)C(=O)N[C@@H](Cc1c[nH]c2ccccc12)C(=O)N[C@@H](CC(C)C)C(=O)N[C@H](C(=O)N[C@@H](CCCNC(=N)N)C(=O)NCC(=O)N[C@@H](CCCNC(=N)N)C(=O)N[C@@H](CCCCNC(=O)COCCOCCNC(=O)COCCOCCNC(=O)CC[C@H](NC(=O)CCCCCCCCCCCCCCCCC(=O)O)C(=O)O)C(=O)NCC(=O)NCC(=O)N[C@@H](CO)C(=O)N[C@@H](CCCCNC(=O)[C@H](CCCCNC(=O)[C@H](CCCCNc1c(NCCCCCN(O)C(=O)CCC(=O)NCCCCCN(O)C(=O)CCC(=O)NCCCCCN(O)C(C)=O)c(=O)c1=O)Nc1c(NCCCCCN(O)C(=O)CCC(=O)NCCCCCN(O)C(=O)CCC(=O)NCCCCCN(O)C(C)=O)c(=O)c1=O)NC(=O)[C@H](CCCCNc1c(NCCCCCN(O)C(=O)CCC(=O)NCCCCCN(O)C(=O)CCC(=O)NCCCCCN(O)C(C)=O)c(=O)c1=O)Nc1c(NCCCCCN(O)C(=O)CCC(=O)NCCCCCN(O)C(=O)CCC(=O)NCCCCCN(O)C(C)=O)c(=O)c1=O)C(=O)O)C(C)C [zirconium-89 labelled]", "test": "ex vivo gamma counting", "system": "Sprague-Dawley rat, male, blood", "conditions": "intravenous, 1 nmol, 24 h", "endpoint": "tissue uptake", "value": "0.465 %ID/g and 0.384 %ID/g"}
{"SMILES": "C[C@@H](NC(=O)N1C(=O)[C@H](Cc2ccnc(N)c2)[C@H]1C(=O)O)C1CCCCC1", "system": "healthy adult Chinese volunteers", "conditions": "continuous intravenous infusion, 2.25 mg/kg/h, 5-day infusion, CTCAE 5.0 grading", "endpoint": "incidence of AEs excluding prolonged aPTT", "value": "62.5%"}
{"SMILES": "CC[C@H](C)CCCCC(=O)N[C@@H](CCN)C(=O)N[C@H](C(=O)N[C@@H](CCN)C(=O)N[C@H]1CCNC(=O)[C@H]([C@@H](C)O)NC(=O)[C@H](CCN)NC(=O)[C@H](CCN)NC(=O)[C@H](CC(C)C)NC(=O)[C@@H](Cc2ccccc2)NC(=O)[C@H](CCN)NC1=O)[C@@H](C)O", "system": "critically ill patients, AKI, plasma", "conditions": "intravenous, 150 mg/day, median", "endpoint": "Cmax steady state", "value": "7600 ng/mL"}
{"SMILES": "O=C(Nc1ccccc1)C1CCN(C(=O)Oc2cccnc2)CC1", "test": "psychotropic effects VAS", "system": "healthy women", "conditions": "20 mg", "how to read": "relative to: pre-dose baseline, direction not given", "endpoint": "change in Drowsy score", "value": 13}
{"SMILES": "Cc1cc(C)nc(Nc2ncc(C(=O)NCCc3c(C)[nH]c4ccccc34)cn2)c1", "system": "dog liver microsomes", "conditions": "1 µM", "endpoint": "maximal hepatic bioavailability", "value": "18%"}
{"SMILES": "C[C@@H]1OC(=O)NN=C1c1ccc(-c2ccc(F)cc2)c(C(F)(F)F)c1", "test": "phase I trial, measured: platelet count decreased", "system": "human patients", "conditions": "dose not given, worst grade 4, all doses", "endpoint": "patients with TEAE", "value": "20%"}
{"SMILES": "COc1cc(N2CCC(N3CCN(C)CC3)CC2)ccc1Nc1ncnc(Nc2ccccc2S(=O)(=O)C(C)C)n1", "test": "measured: Fatigue", "system": "Japanese patients with solid tumours", "conditions": "oral, dose not given, all grades", "endpoint": "treatment-emergent adverse events", "value": "9 number (percent)"}
{"SMILES": "Nc1nc2cc(-c3ccc4ncc(C(=O)N5CCOCC5)n4c3)ccc2o1", "system": "advanced solid tumour patients", "conditions": "dose not given, drug-related, once-daily dosing", "how to read": "relative to: patients", "endpoint": "grade ≥3 ALT/AST elevation", "value": "21%"}
{"SMILES": "Cn1ncc(-c2nc(N[C@H]3CC[C@H](N)CC3)ncc2Cl)c1CC1CC1", "test": "measured: hypoxia grade 3 or higher", "system": "human patients phase I", "conditions": "dose not given", "endpoint": "adverse event incidence", "value": "17%"}
{"SMILES": "Clc1cc2c(cc1Cl)Oc1c(ccc(Cl)c1Cl)O2", "system": "cow whole milk", "conditions": "20 nM", "how to read": "relative to: milk fat over skim milk", "endpoint": "milk fat partition ratio", "value": 237}
{"SMILES": "COc1cccc(Oc2ccccc2NC(=O)CNC(=O)c2cccc3ccccc23)c1", "system": "esterase-deficient SCID mice, male", "conditions": "oral, 100 mg/kg/day, 14 days, toxicity study", "endpoint": "alkaline phosphatase", "value": "59 U/L and 61 U/L and 87 U/L"}
{"SMILES": "CO[C@H]1C[C@@H]2CC[C@@H](C)[C@@](O)(O2)C(=O)C(=O)N2CCCC[C@H]2C(=O)O[C@H]([C@H](C)C[C@@H]2CC[C@@H](OC(=O)NCCOCCOCCOCCOCCOCCOCCOCCOCCC(=O)N3CCc4cc(Cn5nc(-c6ccc7oc(N)nc7c6)c6c(N)ncnc65)ccc4C3)[C@H](OC)C2)C[C@@H](O)[C@H](C)/C=C(\\C)[C@@H](O)[C@@H](OC)C(=O)[C@H](C)C[C@H](C)/C=C/C=C/C=C/1C", "system": "patients with advanced solid tumours", "conditions": "intravenous, dose not given, any grade", "endpoint": "incidence of Anemia TEAE", "value": "26.3%"}
{"SMILES": "C1=Cc2nc1cc1ccc([n-]1)c(-c1ccccc1)c1nc(cc3ccc([n-]3)c2-c2ccccc2)C=C1.CC(=O)[O-].[Mn+3]", "test": "LC-MS/MS", "system": "Sprague-Dawley rat, plasma", "conditions": "oral gavage, dose not given, 60 min", "endpoint": "mean plasma concentration", "value": "53 ng/mL"}
{"SMILES": "CC(C)C[C@H](NC(=O)[C@H](CCCCN)NC(=O)OCC1c2ccccc2-c2ccccc21)C(=O)N[C@H](C(=O)N[C@@H](Cc1ccccc1)C(=O)N[C@@H](Cc1ccccc1)C(=O)N[C@@H](CCCCN)C(=O)NCC(=O)N[C@@H](Cc1ccccc1)C(=O)N[C@@H](C)C(=O)N[C@@H](Cc1c[nH]c2ccccc12)C(=O)N[C@@H](CC(N)=O)C(=O)N[C@H](C(=O)N[C@H]1CSSC[C@@H](C(=O)N[C@@H](Cc2c[nH]cn2)C(=O)N[C@@H](CCCNC(=N)N)C(=O)N[C@@H](CCCNC(=N)N)C(=O)N[C@@H](C)C(=O)N[C@@H](CC(N)=O)C(N)=O)NC(=O)[C@H](C(C)C)NC(=O)[C@H](CCCNC(=N)N)NC(=O)[C@H](C(C)C)NC(=O)CNC(=O)[C@H](CC(N)=O)NC(=O)[C@H](CCCNC(=N)N)NC(=O)[C@H](Cc2ccc(O)cc2)NC(=O)[C@H](C(C)C)NC1=O)C(C)C)C(C)C", "system": "ICR mouse", "conditions": "ip, 5 mg/kg", "how to read": "direction not given", "endpoint": "group interaction score", "value": 0}
{"SMILES": "OC(c1ccc(F)cc1)C(F)(F)CCN1CCC(O)(c2ccc(Cl)cc2)CC1 (racemic)", "system": "female CD-1 mice, brain", "conditions": "intraperitoneal, 10 mg/kg", "endpoint": "brain detection period", "value": "0.083 to 2 h"}
{"SMILES": "[O-][S+]1CCc2nc(N3CCC(c4ncc(Cl)cn4)CC3)nc(NC3(CO)CCC3)c21 (stereo not drawn)", "test": "measured: mean", "system": "idiopathic pulmonary fibrosis patients, blood", "conditions": "18 mg twice daily, at last treatment", "endpoint": "triglycerides", "value": "0.5 mmol/L"}
{"SMILES": "CC1(C)[C@H](C(=O)O[C@H](C#N)c2cccc(Oc3ccccc3)c2)[C@@H]1C=C(Br)Br", "test": "measured: CYP1A2", "system": "human, age 5 years, recombinant human CYP1A2", "conditions": "0.1 µM", "endpoint": "enzyme contribution to clearance", "value": "0.38%"}
{"note": "A few entries again:"}
{"SMILES": "C=CCNc1c(O)cc2c(O)c1C[C@@H](C)C[C@H](OC)[C@H](O)[C@@H](C)/C=C(\\C)[C@H](OC(N)=O)[C@@H](OC)/C=C\\C=C(/C)C(=O)N2", "test": "measured: first-degree AV block", "system": "patients with unresectable or metastatic GIST, STS or other tumours", "conditions": "intravenous, 225 mg/m^2", "endpoint": "treatment-emergent adverse events", "value": "33%"}
{"SMILES": "Cn1ncc(-c2nc(N[C@H]3CC[C@H](N)CC3)ncc2Cl)c1CC1CC1", "test": "measured: hypoxia grade 3 or higher", "system": "human patients phase I", "conditions": "dose not given", "endpoint": "adverse event incidence", "value": "17%"}
{"SMILES": "CC(=O)c1c(C)c2cnc(Nc3ccc(C4CCN(CCS(C)(=O)=O)CC4)cn3)nc2n(C2CCCC2)c1=O", "system": "human, plasma", "conditions": "oral, 75 mg twice daily, day 21, multiple doses, added: letrozole", "endpoint": "Cmax", "value": "191 ng/mL"}
